Assay results collected from several papers.
A part holds a random share of what one study measured. Several values in a cell are separate wells, animals, samples, runs or records.
UniProt P35590, sequence (whole entry, looked up): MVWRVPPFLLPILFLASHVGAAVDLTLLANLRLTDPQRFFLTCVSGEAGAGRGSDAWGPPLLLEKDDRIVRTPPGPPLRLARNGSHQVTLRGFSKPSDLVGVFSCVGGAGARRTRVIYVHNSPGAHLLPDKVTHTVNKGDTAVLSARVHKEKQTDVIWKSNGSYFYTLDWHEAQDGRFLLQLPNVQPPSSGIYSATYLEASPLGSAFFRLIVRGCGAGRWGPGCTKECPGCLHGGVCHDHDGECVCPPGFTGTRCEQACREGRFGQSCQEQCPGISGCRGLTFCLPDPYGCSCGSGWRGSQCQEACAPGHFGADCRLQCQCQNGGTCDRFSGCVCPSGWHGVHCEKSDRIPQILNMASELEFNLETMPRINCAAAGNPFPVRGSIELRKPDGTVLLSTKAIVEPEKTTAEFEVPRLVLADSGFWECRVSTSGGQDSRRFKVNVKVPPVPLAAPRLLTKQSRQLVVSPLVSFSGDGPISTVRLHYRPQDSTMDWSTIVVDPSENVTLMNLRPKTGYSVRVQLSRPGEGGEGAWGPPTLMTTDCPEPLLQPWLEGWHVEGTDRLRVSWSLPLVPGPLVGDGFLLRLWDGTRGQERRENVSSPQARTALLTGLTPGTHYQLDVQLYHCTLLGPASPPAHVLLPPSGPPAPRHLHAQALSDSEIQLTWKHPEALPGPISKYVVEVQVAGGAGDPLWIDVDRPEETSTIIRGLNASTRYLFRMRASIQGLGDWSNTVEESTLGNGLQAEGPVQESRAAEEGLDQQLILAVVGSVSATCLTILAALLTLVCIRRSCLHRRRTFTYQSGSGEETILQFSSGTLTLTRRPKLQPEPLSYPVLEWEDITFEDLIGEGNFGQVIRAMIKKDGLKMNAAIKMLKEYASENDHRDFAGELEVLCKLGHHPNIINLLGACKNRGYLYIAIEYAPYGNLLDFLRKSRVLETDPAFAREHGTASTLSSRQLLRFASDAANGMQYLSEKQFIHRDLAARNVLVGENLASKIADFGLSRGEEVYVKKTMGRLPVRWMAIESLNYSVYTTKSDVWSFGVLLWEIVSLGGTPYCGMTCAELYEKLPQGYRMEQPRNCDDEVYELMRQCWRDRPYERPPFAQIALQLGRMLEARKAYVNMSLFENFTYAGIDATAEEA
UniProt Q08345, sequence (whole entry, looked up): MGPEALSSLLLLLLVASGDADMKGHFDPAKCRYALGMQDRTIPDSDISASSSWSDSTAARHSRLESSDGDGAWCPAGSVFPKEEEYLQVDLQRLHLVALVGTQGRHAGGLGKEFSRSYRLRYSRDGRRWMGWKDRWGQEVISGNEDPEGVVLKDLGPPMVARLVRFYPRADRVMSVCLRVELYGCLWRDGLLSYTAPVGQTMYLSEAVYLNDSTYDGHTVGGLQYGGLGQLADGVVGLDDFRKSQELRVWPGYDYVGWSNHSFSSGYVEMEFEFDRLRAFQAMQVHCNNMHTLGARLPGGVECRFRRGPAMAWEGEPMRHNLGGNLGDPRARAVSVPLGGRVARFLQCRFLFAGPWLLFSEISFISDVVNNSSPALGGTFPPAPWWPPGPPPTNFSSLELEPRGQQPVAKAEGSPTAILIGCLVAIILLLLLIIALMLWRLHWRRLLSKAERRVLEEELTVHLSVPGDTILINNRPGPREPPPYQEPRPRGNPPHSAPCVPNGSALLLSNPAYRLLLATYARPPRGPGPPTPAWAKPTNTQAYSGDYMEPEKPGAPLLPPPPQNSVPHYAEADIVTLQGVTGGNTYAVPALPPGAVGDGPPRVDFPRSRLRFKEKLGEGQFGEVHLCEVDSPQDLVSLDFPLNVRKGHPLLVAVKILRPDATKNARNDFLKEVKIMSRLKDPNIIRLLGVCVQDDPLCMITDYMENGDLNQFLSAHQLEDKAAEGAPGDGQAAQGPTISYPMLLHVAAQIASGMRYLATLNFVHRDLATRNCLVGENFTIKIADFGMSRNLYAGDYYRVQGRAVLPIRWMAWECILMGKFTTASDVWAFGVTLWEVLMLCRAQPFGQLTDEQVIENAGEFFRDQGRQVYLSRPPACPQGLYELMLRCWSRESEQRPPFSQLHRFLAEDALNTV
UniProt Q9Y2H9, sequence (whole entry, looked up): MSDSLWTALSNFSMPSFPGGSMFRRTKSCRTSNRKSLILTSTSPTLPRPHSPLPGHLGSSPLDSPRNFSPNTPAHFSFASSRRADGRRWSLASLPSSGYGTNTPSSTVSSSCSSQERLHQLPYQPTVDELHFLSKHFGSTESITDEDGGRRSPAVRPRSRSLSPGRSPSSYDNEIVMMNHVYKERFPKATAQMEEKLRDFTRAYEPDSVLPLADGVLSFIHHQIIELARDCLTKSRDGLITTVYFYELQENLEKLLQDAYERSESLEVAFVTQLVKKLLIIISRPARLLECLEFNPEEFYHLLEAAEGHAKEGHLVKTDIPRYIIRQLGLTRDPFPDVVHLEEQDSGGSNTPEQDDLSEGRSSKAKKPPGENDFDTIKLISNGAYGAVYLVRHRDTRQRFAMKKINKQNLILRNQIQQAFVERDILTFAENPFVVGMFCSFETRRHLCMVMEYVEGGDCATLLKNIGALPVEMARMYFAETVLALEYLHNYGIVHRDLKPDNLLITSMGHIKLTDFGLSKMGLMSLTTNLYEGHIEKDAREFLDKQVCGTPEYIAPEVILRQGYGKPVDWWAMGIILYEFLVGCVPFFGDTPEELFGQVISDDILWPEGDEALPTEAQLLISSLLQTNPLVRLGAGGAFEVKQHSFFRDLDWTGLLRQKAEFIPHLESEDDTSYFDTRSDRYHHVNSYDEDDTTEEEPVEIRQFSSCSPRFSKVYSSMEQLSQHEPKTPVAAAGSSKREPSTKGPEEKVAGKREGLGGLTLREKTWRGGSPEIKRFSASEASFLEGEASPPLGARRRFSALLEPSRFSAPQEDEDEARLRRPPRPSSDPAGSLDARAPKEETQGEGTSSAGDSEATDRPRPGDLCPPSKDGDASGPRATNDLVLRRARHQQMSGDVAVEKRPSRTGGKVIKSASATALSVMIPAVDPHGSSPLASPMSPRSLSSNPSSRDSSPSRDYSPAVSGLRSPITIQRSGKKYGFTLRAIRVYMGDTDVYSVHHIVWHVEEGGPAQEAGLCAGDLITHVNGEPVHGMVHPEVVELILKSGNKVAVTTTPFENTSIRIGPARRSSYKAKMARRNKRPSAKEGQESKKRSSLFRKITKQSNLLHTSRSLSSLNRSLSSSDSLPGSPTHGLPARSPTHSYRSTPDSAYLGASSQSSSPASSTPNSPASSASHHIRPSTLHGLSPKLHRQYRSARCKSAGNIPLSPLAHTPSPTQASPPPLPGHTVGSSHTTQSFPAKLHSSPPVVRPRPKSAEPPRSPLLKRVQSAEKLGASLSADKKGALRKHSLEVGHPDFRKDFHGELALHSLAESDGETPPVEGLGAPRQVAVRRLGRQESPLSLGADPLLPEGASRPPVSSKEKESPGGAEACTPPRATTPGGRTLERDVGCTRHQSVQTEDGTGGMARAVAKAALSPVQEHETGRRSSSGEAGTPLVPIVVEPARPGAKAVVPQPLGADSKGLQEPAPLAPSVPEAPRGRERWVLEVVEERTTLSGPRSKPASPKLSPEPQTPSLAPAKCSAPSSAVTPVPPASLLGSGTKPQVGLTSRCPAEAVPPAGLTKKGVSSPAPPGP
UniProt Q9UF33, sequence (whole entry, looked up): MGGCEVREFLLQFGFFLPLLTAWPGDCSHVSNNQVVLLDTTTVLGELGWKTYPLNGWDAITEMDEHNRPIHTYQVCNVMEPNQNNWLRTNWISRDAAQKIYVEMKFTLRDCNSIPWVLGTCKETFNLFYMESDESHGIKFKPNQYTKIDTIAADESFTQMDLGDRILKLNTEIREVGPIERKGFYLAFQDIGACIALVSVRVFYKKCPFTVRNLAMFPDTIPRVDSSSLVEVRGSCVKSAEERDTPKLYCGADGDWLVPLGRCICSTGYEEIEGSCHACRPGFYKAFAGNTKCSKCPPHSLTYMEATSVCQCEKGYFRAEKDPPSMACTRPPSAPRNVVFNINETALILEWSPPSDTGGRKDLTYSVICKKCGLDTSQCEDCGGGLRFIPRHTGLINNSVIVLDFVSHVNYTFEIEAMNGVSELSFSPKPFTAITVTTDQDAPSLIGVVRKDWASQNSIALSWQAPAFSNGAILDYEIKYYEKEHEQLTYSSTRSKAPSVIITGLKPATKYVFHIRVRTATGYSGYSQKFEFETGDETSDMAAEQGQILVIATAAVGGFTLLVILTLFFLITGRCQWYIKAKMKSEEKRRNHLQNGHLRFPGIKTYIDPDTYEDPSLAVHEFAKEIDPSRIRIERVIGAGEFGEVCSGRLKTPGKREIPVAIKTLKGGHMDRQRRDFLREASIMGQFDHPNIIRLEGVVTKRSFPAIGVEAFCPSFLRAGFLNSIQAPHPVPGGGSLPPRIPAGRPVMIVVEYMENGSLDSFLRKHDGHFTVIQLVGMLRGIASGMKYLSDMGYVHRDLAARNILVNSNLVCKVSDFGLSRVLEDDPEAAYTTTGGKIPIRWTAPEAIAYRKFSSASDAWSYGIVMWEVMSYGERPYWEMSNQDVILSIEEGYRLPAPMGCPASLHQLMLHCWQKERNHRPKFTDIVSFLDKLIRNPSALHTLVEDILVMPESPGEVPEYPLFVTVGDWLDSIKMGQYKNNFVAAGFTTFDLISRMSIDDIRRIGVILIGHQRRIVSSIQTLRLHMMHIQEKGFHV
UniProt P45985, sequence (whole entry, looked up): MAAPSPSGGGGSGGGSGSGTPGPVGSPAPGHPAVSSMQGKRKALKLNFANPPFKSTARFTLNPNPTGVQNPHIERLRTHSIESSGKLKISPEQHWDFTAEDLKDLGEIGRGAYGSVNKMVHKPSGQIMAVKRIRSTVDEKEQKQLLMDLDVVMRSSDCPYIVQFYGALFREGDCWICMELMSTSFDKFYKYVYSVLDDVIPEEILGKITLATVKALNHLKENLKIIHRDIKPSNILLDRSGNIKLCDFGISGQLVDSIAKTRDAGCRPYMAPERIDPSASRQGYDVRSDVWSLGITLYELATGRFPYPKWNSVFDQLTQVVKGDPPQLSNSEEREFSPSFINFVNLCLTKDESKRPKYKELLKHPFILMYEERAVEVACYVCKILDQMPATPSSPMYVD

Set 1
Cell line: mouse MPNST tumor cells
Method: high-content nuclear imaging
Measured: cell number
Concentration: 10 µM
Time: 12 h
Notes: mean of 2 replicates
Baseline: plate mean
Direction: higher = more cells
Compound	nuclei count
COc1cc(Br)c(OC)c2c1C(CN)C2 (stereo not shown)	1.99 z-score
Cc1cc2c(cc1-c1cc(/C=C/C(=O)O)ccc1O)C(C)(C)CCC2(C)C	0.397 z-score
Cc1cc2c(C(C)C)c(O)c(O)c(C=O)c2c(O)c1-c1c(C)cc2c(C(C)C)c(O)c(O)c(C=O)c2c1O	-0.485 z-score
CN1C2C=C(c3sccc3Br)CC1CC2 (stereo not shown)	1.1 z-score
CC[C@H]1CN2CC[C@H]1C[C@@H]2[C@@H](O)c1ccnc2ccc(OC)cc12	4.03 z-score
COc1ccc2c(c1)/C(=C/c1cnc[nH]1)C(=O)N2	-1.36 z-score
O=C1CCCN1CC#CCN1CCCC1	0.633 z-score

Set 2
Cell line: HEK-293T
Read-out: pseudovirus infection
Method: FDA-approved drug library counter-screen
Organism: VSV pseudotyped with VSV-G
Concentration: 10 µM
Time: 16 h
Baseline: vehicle-treated
SMILES	GFP-positive cells
CCN(CC)CCNC(=O)c1ccc(N)cc1	116%
Cc1nc2n(c(=O)c1CCN1CCC(c3noc4cc(F)ccc34)CC1)CCCC2O (stereo not shown)	123%
Cc1cnc(C(=O)N[C@H]2CCCCC/C=C\[C@@H]3C[C@@]3(C(=O)NS(=O)(=O)C3CC3)NC(=O)[C@@H]3C[C@@H](Oc4nc5ccccc5c5ccccc45)CN3C2=O)cn1	102%
COC1=CC(=O)C[C@@H](C)[C@]12Oc1c(Cl)c(OC)cc(OC)c1C2=O	81.2%
NS(=O)(=O)c1cc2c(cc1Cl)NC(C(Cl)Cl)NS2(=O)=O (stereo not shown)	91.5%
CN(C)C/C=C/C(=O)Nc1cc2c(Nc3ccc(F)c(Cl)c3)ncnc2cc1O[C@H]1CCOC1	89.4%
CC(C)(Oc1ccc(C(=O)c2ccc(Cl)cc2)cc1)C(=O)O	87.8%
CC(=O)Nc1cccc(-n2c(=O)n(C3CC3)c(=O)c3c(Nc4ccc(I)cc4F)n(C)c(=O)c(C)c32)c1	103%
C[C@H](CCC(=O)O)[C@H]1CC[C@H]2[C@@H]3[C@H](O)C[C@@H]4C[C@H](O)CC[C@]4(C)[C@H]3CC[C@]12C	90.9%
C[C@]12CC[C@H](O)CC1=CC[C@@H]1[C@@H]2CC[C@]2(C)C(c3cccnc3)=CC[C@@H]12	133%
CCCCOc1ccc(OCCCN2CCOCC2)cc1	109%
Cn1c(=O)c2c(ncn2CC(O)CO)n(C)c1=O (stereo not shown)	80.5%
CCCCC(=O)O[C@]1(C(=O)CO)CC[C@H]2[C@@H]3CCC4=CC(=O)CC[C@]4(C)[C@H]3[C@@H](O)C[C@@]21C	87.6%
O=P(O)(O)C(O)(Cn1ccnc1)P(=O)(O)O	108%
OCCN1C[C@H](O)[C@@H](O)[C@H](O)[C@H]1CO	95%
COc1cc(C)c(/C=C/C(C)=C/C=C/C(C)=C/C(=O)O)c(C)c1C	128%
CC(CCc1ccccc1)NCC(O)c1ccc(O)c(C(N)=O)c1 (stereo not shown)	89.8%
CC(C)C(=O)Oc1ccc(CO)cc1[C@H](CCN(C(C)C)C(C)C)c1ccccc1	111%
CCCN1CCCC[C@H]1C(=O)Nc1c(C)cccc1C	108%
CC[C@@H]([C@H](C)O)n1ncn(-c2ccc(N3CCN(c4ccc(OC[C@@H]5CO[C@@](Cn6cncn6)(c6ccc(F)cc6F)C5)cc4)CC3)cc2)c1=O	146%
C[N+]1(C)[C@@H]2C[C@@H](OC(=O)[C@H](CO)c3ccccc3)C[C@H]1[C@@H]1O[C@@H]12	103%
CC(C)C(=O)Nc1ccc([N+](=O)[O-])c(C(F)(F)F)c1	94%
CN1C(=O)OC(C)(C)C1=O	89.4%
CCOC(=O)c1ccc(C#Cc2ccc3c(c2)C(C)(C)CCS3)nc1	138%
CN(C)CCCN1c2ccccc2Sc2ccc(Cl)cc21	95.7%

Set 3
SMILES: CNC(=O)c1ccc(-c2cnn3ccc(C(=O)N(C)c4ccc(Cl)c(C(=O)OC)c4)cc23)cc1
Organism: Cryptosporidium parvum
Host: neonatal calves
Dose: dose not given
assay	setting	fecal oocyst count
	day 5 post-treatment	129 oocysts/g feces and 2220 oocysts/g feces and 61 oocysts/g feces and 218 oocysts/g feces and 225 oocysts/g feces and 5710 oocysts/g feces and 10800 oocysts/g feces
qPCR	day 1 post-treatment	3340 oocysts/g feces and 23000 oocysts/g feces and 73800 oocysts/g feces and 1360 oocysts/g feces and 1930 oocysts/g feces and 4300 oocysts/g feces and 51800 oocysts/g feces
	day 1 post-treatment	23000 oocysts/g feces and 1360 oocysts/g feces and 73800 oocysts/g feces and 51800 oocysts/g feces and 3340 oocysts/g feces and 4300 oocysts/g feces and 1930 oocysts/g feces
qPCR	day 4 post-treatment	18000 oocysts/g feces and 54 oocysts/g feces and 1550 oocysts/g feces and 1160 oocysts/g feces
qPCR	day 13 post-treatment	21 oocysts/g feces and 0 oocysts/g feces
qPCR	day 6 post-treatment	473 oocysts/g feces and 36 oocysts/g feces and 2120 oocysts/g feces and 82 oocysts/g feces and 0 oocysts/g feces and 354 oocysts/g feces
qPCR	day 8 post-treatment	49 oocysts/g feces and 0 oocysts/g feces and 127 oocysts/g feces and 18 oocysts/g feces and 188 oocysts/g feces

Set 4
Structure (SMILES): N#CC1(c2ccccn2)CCN(Cc2cc(C(=O)O)c(=O)n3ccccc23)CC1
Concentration: 1 µM
target	assay	remaining binding [%]
Non-receptor tyrosine-protein kinase TYK2, JH1 (TYK2, Homo sapiens, UniProt P29597)	cell-free assay, competition with immobilised ligand	99
Rhodopsin kinase GRK1 (GRK1, Homo sapiens, UniProt Q15835)	cell-free assay, competition with immobilised ligand	84
Microtubule-associated serine/threonine-protein kinase 1 (MAST1, Homo sapiens, UniProt Q9Y2H9)	cell-free assay, competition with immobilised ligand	50
Dual specificity mitogen-activated protein kinase kinase 4 (MAP2K4, Homo sapiens, UniProt P45985)	cell-free assay, competition with immobilised ligand	85
NUAK family SNF1-like kinase 2 (NUAK2, Homo sapiens, UniProt Q9H093)	cell-free assay, competition with immobilised ligand	77
Ephrin type-A receptor 6 (EPHA6, Homo sapiens, UniProt Q9UF33)	cell-free assay, competition with immobilised ligand	86
G protein-coupled receptor kinase 3 (GRK3, Homo sapiens, UniProt P35626)	cell-free assay, competition with immobilised ligand	95
Transient receptor potential cation channel subfamily M member 6 (TRPM6, Homo sapiens, UniProt Q9BX84)	cell-free assay, competition with immobilised ligand	100
Phosphatidylinositol 4,5-bisphosphate 3-kinase catalytic subunit alpha isoform (PIK3CA, Homo sapiens, UniProt P42336, E542K)	cell-free assay, competition with immobilised ligand	87
Serine/threonine-protein kinase WNK1 (WNK1, Homo sapiens, UniProt Q9H4A3)	cell-free assay, competition with immobilised ligand	97
5'-AMP-activated protein kinase catalytic subunit alpha-2 (PRKAA2, Homo sapiens, UniProt P54646)	cell-free assay, competition with immobilised ligand	100
LIM domain kinase 2 (LIMK2, Homo sapiens, UniProt P53671)	cell-free assay, competition with immobilised ligand	100
Ribosomal protein S6 kinase alpha-2, N-terminal kinase domain (RPS6KA2, Homo sapiens, UniProt Q15349)	cell-free assay, competition with immobilised ligand	100
Serine/threonine-protein kinase PAK 2 (PAK2, Homo sapiens, UniProt Q13177)	cell-free assay, competition with immobilised ligand	77
Epithelial discoidin domain-containing receptor 1 (DDR1, Homo sapiens, UniProt Q08345)	cell-free assay, competition with immobilised ligand	100
Mast/stem cell growth factor receptor Kit (KIT, Homo sapiens, UniProt P10721, D816H)	cell-free assay, competition with immobilised ligand	85
Cyclin-dependent kinase 19 (CDK19, Homo sapiens, UniProt Q9BWU1)	competition binding	82
Serine/threonine-protein kinase PknB (pknB, Mycobacterium tuberculosis, UniProt P9WI81)	cell-free assay, competition with immobilised ligand	88
Cyclin-dependent kinase-like 5 (CDKL5, Homo sapiens, UniProt O76039)	cell-free assay, competition with immobilised ligand	100
RAC-alpha serine/threonine-protein kinase (AKT1, Homo sapiens, UniProt P31749)	cell-free assay, competition with immobilised ligand	100
Tyrosine-protein kinase receptor Tie-1 (TIE1, Homo sapiens, UniProt P35590)	cell-free assay, competition with immobilised ligand	100
Mitogen-activated protein kinase 6 (MAPK6, Homo sapiens, UniProt Q16659)	cell-free assay, competition with immobilised ligand	100

For quick reference, copied from above (set 4):
target	assay	remaining binding [%]
Serine/threonine-protein kinase WNK1 (WNK1, Homo sapiens, UniProt Q9H4A3)	cell-free assay, competition with immobilised ligand	97
5'-AMP-activated protein kinase catalytic subunit alpha-2 (PRKAA2, Homo sapiens, UniProt P54646)	cell-free assay, competition with immobilised ligand	100
LIM domain kinase 2 (LIMK2, Homo sapiens, UniProt P53671)	cell-free assay, competition with immobilised ligand	100
Ribosomal protein S6 kinase alpha-2, N-terminal kinase domain (RPS6KA2, Homo sapiens, UniProt Q15349)	cell-free assay, competition with immobilised ligand	100
Serine/threonine-protein kinase PAK 2 (PAK2, Homo sapiens, UniProt Q13177)	cell-free assay, competition with immobilised ligand	77
Epithelial discoidin domain-containing receptor 1 (DDR1, Homo sapiens, UniProt Q08345)	cell-free assay, competition with immobilised ligand	100
Mast/stem cell growth factor receptor Kit (KIT, Homo sapiens, UniProt P10721, D816H)	cell-free assay, competition with immobilised ligand	85
Cyclin-dependent kinase 19 (CDK19, Homo sapiens, UniProt Q9BWU1)	competition binding	82
Serine/threonine-protein kinase PknB (pknB, Mycobacterium tuberculosis, UniProt P9WI81)	cell-free assay, competition with immobilised ligand	88
Cyclin-dependent kinase-like 5 (CDKL5, Homo sapiens, UniProt O76039)	cell-free assay, competition with immobilised ligand	100
